# Published values collected from several papers.
# Each numbered part is a random draw from the data of one study; scales do not carry over between parts. Positions count from the first letter of the parent shown.

# Study 1
# Target: CCND1, cyclin fold, Cln2 fusion (human)
# Technique: yeast growth competition, sequencing
# Medium: yeast
# Notes: strong parent motif
# Reference: not given
# Reading: higher = stronger binding
# Starting sequence: RBL2 docking peptide (human); STTRRRLFVENDS
Substitution,normalised enrichment score
V9Y,1.19
R4K,0.533
L7K,-0.463
E10D,1.9
N11T,1.08
E10P,0.772
S13D,1.68
R5P,1.65
T2V,0.797
L7W,-0.546
R4N,0.188
T3M,-0.448
R6K,1.44
R4D,-0.307
F8R,-0.176
N11L,0.0671
E10L,-0.272
S13P,1.17
S13T,0.478
S13E,1.6
F8M,-0.394
V9R,0.326
E10H,0.196
R4S,0.45
F8K,-0.0514

# Study 2
# Target: Histone acetyltransferase KAT6A, winged helix 2, GST fusion (KAT6A, Homo sapiens, UniProt Q92794, residues 85-181)
# Technique: protein binding microarray
# Form: double-stranded DNA, one strand shown
# Medium: in vitro
# Tested at: not given
# Notes: 8-mer, flanks averaged, mean of 2 arrays, mostly near background
# Reference: not given
# Reading: higher = stronger binding
# Residues (chain): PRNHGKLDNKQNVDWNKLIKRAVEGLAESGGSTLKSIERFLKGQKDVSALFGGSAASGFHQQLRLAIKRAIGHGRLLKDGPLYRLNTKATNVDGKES
Sequence,E-score
TACAAAAA,0.0946
CCGTCTGC,0.126
GGTGCAAC,0.0634
GAAACGGA,-0.00094
ACCTCCGT,0.126
ACGTATCC,-0.243
CGATAGCC,-0.133
GTCGGCAA,0.15
AACGCAAC,0.188

# Study 3
# Target: RNA binding protein fox-1 homolog 2, RRM domain, GST-SBP tag (RBFOX2, Homo sapiens, UniProt O43251-10, residues 100-194)
# Technique: RNA Bind-n-Seq
# Form: RNA
# Medium: in vitro
# Tested at: 365 nM
# Notes: natural RNA segment, single round, ends assumed
# Reference: no-protein control
# Reading: higher = stronger binding
# Shared flanks, not repeated: GGGAGUUCUACAGUCCGACGAUC … UGGAAUUCUCGGGUGCCAA
Sequence,RBNS enrichment (R)
GAAGGCCAGGAAGAAUGGUGUGUUUCCCUAGACUCUGUAACCACCUCUCUGUCUUUUUCCUUCCUGAGAAACGUCCAUCUCUCUCCCUUACUAUUCCCACUUUCAUUCAA,0.808
UGCUUCCCUUGACUGGGGAGACUGGAAGUCCUUACACUGGAGUUGCUGGGCCAACUGGUCACCCUCACACAGCACAGAGGGGGCUAGAGGGAACAGCCUCCUGGGUCUUC,0.362
AGAUGUGUAUGGCAAUGUUAACUGAACCUGUUUGUAUUAAAAAGUAAAUCCCUAUGAGGAAUGUGGAAAUGUCCGUCAAAGCAUUGUCUUUUAAGUAAGUUCCAAGAUCC,1.4
CAGAACCUGGAACCUAGAGGCCUUUCUCUCUGCACGAAAAACAGGUAGUUUGCAGUCUGAGAUAUGGGAGAGCUUUUAGGCUACACAGCAACCCAAGGGACCUCUCACCU,2.36
UGGUUCCUCAGGGAAGAAUCUCACUUGACUAGAGAGGAGGUGGGAACAGAAGAGAGAAGGAGGCAGGGAGAUGUAUUUCUUAGGGCUCACCCCUUCACAGACUGACAGAA,0.666
UACCUCCAUUCUGAAGAGGGAGGUUUUGGUGUCCCUGGUCCUCUGGGAAUAGAAGAUCCAUUUGUCUUUGUGUAGAGCAAGCACGUUUUCCACCUCACUGUCUCCAUCCU,0.891
CUUUGCUUCUUUUAUGUUUGUAAUCUGUAAAUGAACACAUGGCAGAAAAUAACCCCUGAUUGGUAGGAUCAUAGUUCUAAAUGGAAAUGUUUGUAAUUCUUUGAUGUGCU,1.33
AGGGGGUAAAAUCAAGAGAAAAAACUCUCAGGAAUCAAGGAACAUAAUCCUGUGGAGGGUAAUCCAUUACAUGAGCUUCUCCUGUUCUUCCACUUUCCUGCCUGGCUUUC,0.401
AGUGGGAAGAGAGUACCGGCAUCGGGUUUCCUUGGGAUCAAUUUCAUUACCGUGUACCUUUCCCAUUGUGGUCAUGCCAUUUGGCAGGGGGAGAAUGGGAGGCUUGGCCU,0.436
AUUUAUUCUCUACAAUAUAUAAAAUGUAUUUGUUCUCUACAAUAAAUGUGUUUAUUCUCUACAAUAUAUAAAAACAUAUUGGACUACUAUUACAUAAUUAAAUUACUCUU,0.65
UGCUGUUUAGAAAGCAUUUAUCUUGCAUUUCUUUAUUCUUUCUAAUUAUCUAAAAUUCAAUAAAAUUUUAUUCAUAUAAAAUAAGUUGUCAUUAAUUAUCAAUACUAACG,2.2

# Mixed results
Molecule,tested on,test,system,conditions,how to read,measurement,value
"RFC2 (Homo sapiens, UniProt P35250)","RFC5 (Homo sapiens, UniProt P40937)",cross-linking MS,cell fractions,with: DSSO,,cross-linked residues,K99 to K144
"PhoQ, residues 284 288 289 292 302 303 TTCLQL","PhoP, residues 12 14 15 18 19 NHTVL (Escherichia coli, UniProt P23836)","Sort-seq, item: YFP reporter",E. coli,"PhoQ-PhoP variant library, with: 10 µM Mg2+","reference: high Mg2+ state, higher = stronger signaling",fold induction,2.04
"EIF4A3 (Homo sapiens, UniProt P38919)","MAGOH (Homo sapiens, UniProt P61326)",cross-linking MS,,hits only,,interaction screen,cross-linked
"DNAAF10 (Homo sapiens, UniProt Q96MX6)","IPO9 (Homo sapiens, UniProt Q96P70)",cross-linking MS,cell fractions,with: DSSO,,cross-linked residues,K66 to K916
"CCT4 (Homo sapiens, UniProt P50991)","CCT7 (Homo sapiens, UniProt Q99832)",cross-linking MS,cell fractions,with: DMTMM,,cross-linked residues,P2 to D70
